Experimental data collected from several papers.
Lines come from different studies, so protocols differ.
Target: 5-hydroxytryptamine receptor 1A (HTR1A, Homo sapiens, UniProt P08908)
UniProt P08908, sequence (whole entry, looked up): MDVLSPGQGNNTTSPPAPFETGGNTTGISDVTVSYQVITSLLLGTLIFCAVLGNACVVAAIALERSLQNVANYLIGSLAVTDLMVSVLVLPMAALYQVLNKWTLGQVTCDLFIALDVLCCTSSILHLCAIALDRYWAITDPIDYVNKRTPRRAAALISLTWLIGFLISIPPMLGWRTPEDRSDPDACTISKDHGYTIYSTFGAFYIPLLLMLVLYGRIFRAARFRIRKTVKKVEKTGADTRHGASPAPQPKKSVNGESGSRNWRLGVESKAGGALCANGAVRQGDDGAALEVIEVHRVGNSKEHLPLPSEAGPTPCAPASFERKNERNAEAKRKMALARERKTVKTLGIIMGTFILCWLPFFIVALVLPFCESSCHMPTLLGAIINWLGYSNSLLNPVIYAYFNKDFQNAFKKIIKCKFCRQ

Structure (SMILES) | assay | test system | setting | scale | endpoint | result
CC(C)C[C@H]1C(=O)N2CCC[C@H]2[C@]2(O)O[C@](NC(=O)[C@@H]3C=C4c5cccc6[nH]c(Br)c(c56)C[C@H]4[N+](C)(C)C3)(C(C)C)C(=O)N12.[I-] | – | – | 100 nM, added: [3H]8-OH-DPAT | – | radioligand binding inhibition | no effect
CCCN(CCC)C1CCc2cccc(O)c2C1 (centres unmarked) | binding, agonist, radioligand binding | – | – | – | Hill coefficient | 1.2
CN1CCN(c2cc(-c3ccncc3)c(-c3ccc4ccccc4c3)nn2)CC1 | agonist, FLIPR | – | 12.5 µM | – | activation | -1.4%
CN1CCN(c2nc(N)c3ccccc3n2)CC1 | radioligand binding, radioligand competition binding | – | 0.1 µM, mean of two | reference: control specific binding | inhibition | 5%
O=c1ccc2ccccc2o1 | agonist radioligand binding | – | 10 µM, SafetyScreen44 | – | inhibition | 2.44%
C[C@H](N)Cn1ncc2ccc3c(c21)CCCO3.Cl | inhibition, of cAMP, forskolin-induced, agonist | CHO cells | – | – | efficacy | 87%
Cn1cccc1-c1cccnc1 | binding | – | 50 µM | – | inhibition | -1.38%
CN[C@]1(c2ccccc2Cl)CCCCC1=O | radioligand binding, agonist, radioligand displacement | – | 30 µM | – | inhibition | 11%

For quick reference, copied from above:
Structure (SMILES) | assay | test system | setting | scale | endpoint | result
C[C@H](N)Cn1ncc2ccc3c(c21)CCCO3.Cl | inhibition, of cAMP, forskolin-induced, agonist | CHO cells | – | – | efficacy | 87%
